Experimental data pooled from the literature.
KIT D816V: Mast/stem cell growth factor receptor Kit (KIT, Homo sapiens, UniProt P10721, D816V)
KIT: Mast/stem cell growth factor receptor Kit (KIT, Homo sapiens, UniProt P10721)
KIT T670I/V559D: Mast/stem cell growth factor receptor Kit (KIT, Homo sapiens, UniProt P10721, T670I/V559D)
KIT V559D/V654A: Mast/stem cell growth factor receptor Kit (KIT, Homo sapiens, UniProt P10721, V559D/V654A)

CCN1CCN(Cc2ccc(NC(=O)c3ccc(C)c(NC(=O)c4cncc(-c5cccs5)c4)c3)cc2C(F)(F)F)CC1 — remaining binding (KIT D816V; binding, competition with immobilised ligand; 1 µM): 11%
CCN1CCN(Cc2ccc(C(=O)Nc3ccc(C)c(NCc4cnc5[nH]ccc5c4OC)c3)cc2C(F)(F)F)CC1 — remaining binding (KIT; binding, competition with immobilised ligand; 1 µM): 0.15%
Cc1cnc2nc1Nc1cccc(c1)COC/C=C/COCc1cc(ccc1OCCN1CCOCC1)N2 — remaining binding (KIT (Homo sapiens, UniProt P10721, A829P); binding; 0.1 µM): 25%
CN1CCN(Cc2ccc(NC(=O)c3cccc(C#Cc4cnc(N)c5ncccc45)c3)cc2C(F)(F)F)CC1 — remaining binding (KIT T670I/V559D; cell-free assay, competition with immobilised ligand; 0.5 µM): 0.1%
C=CC(=O)N1CCc2ccc(-n3c(=O)ccc4cnc5ccc(-c6cnn(C)c6)cc5c43)cc21 — remaining binding (KIT V559D/V654A; KINOMEscan; 1 µM; baseline: DMSO control): 100%
C=CC(=O)N1CCCC(n2c(=O)c3ncccc3n(Cc3ccc(Oc4ccccc4)cc3)c2=O)C1 (centres unmarked) — remaining binding (Mast/stem cell growth factor receptor Kit, autoinhibited (KIT, Homo sapiens, UniProt P10721); cell-free assay, competition with immobilised ligand; 1 µM): 64%
CC(C)=CC1OC(C)(C)C2C=C3C(=O)C(Cl)=CC(O)C3C3C(O)C4OC4C(=O)C132 (centres unmarked) — remaining binding (KIT T670I/V559D; cell-free assay, competition with immobilised ligand; 10 µM): 90%
CC(=O)N1c2ccc(-c3ccc(CNC(=O)c4cn5cc(-c6cnc(N)nc6)nc(N6CCOCC6)c5n4)cc3)cc2CC[C@@H]1C — remaining binding (KIT T670I/V559D; KINOMEscan; 10 µM, V559D/T670I mutant): 85%
COC(=O)[C@@]1(C)C=C(C(=O)Nc2cccc(C(=O)Nc3ccc(Nc4nccc(-c5cccnc5)n4)c(C)c3)c2)C(=O)CC1 — remaining binding (KIT; binding, competition with immobilised ligand; 1 µM): 25%
Cc1ccc(C(=O)Nc2cccc(C(F)(F)F)c2)cc1Nc1cncc(C(N)=O)c1 — remaining binding (KIT (Homo sapiens, UniProt P10721, V559D); binding, competition with immobilised ligand; 1 µM): 0%
Nc1ncc2c(n1)-c1c([nH]c3ccc(C4=CCOCC4)cc13)CCC2 — remaining binding (KIT V559D/V654A; binding, competition with immobilised ligand; 1 µM): 94%
COc1c(Cl)cccc1Nc1c(-c2ccncc2C#C[C@@]2(C)CCCN2C(=O)/C=C/CN(C)C)[nH]c2c1C(=O)NCC2 — remaining binding (KIT; binding, competition with immobilised ligand; 3 µM): 99%
CNc1ccc(-c2n[nH]c3c2CCN(C(=O)c2ccccc2)C3)cc1 — remaining binding (KIT; cell-free assay, competition with immobilised ligand; 10 µM): 3.5%
CNC1C[S+]2CC[S+]3CC[S+](C1)[Ru-4]321([N]=C=S)[n]2c3ccc(OC)cc3c3c4c(c5cc(F)c[n+]1c5c32)C(=O)NC4=O (centres unmarked) — remaining binding (KIT V559D/V654A; KinomeScan; 0.1 µM; baseline: untreated): 75%
Cc1ccc(-c2c(/C=C(\C#N)C(=O)NC(C)C)n(CCCO)c3ncnc(N)c23)cc1 — remaining binding (KIT; cell-free assay, competition with immobilised ligand; 1 µM): 34%
CNC(=O)C1CCN(c2cc(C)c(F)cc2NC(=O)c2ccc(-c3cc(O)ccc3C)c(C)c2)CC1 — remaining binding (KIT D816V; binding, competition with immobilised ligand; 1 µM): 6.8%
CNS(=O)(=O)Nc1nccc(Cc2c(C)c3ccc(Oc4ncccc4F)cc3oc2=O)c1F — remaining binding (KIT D816V; binding, competition with immobilised ligand; 10 µM): 98%
